Measured values pooled from the literature.
Each numbered part is a random draw from the data of one study; scales do not carry over between parts. Positions count from the first letter of the parent shown.

Study 1 — technique: competition protein-binding microarray; form: double-stranded DNA, one strand shown; medium: in vitro; concentration: 2 µM; added: Cbf1 competitor, 0.05 µM; direction: higher = stronger binding; quantity: fluorescence intensity
Target: Phosphate system positive regulatory protein PHO4, full length, GST-tagged (PHO4, Saccharomyces cerevisiae, UniProt P07270, residues 1-312)
Setting: whole 60-bp probe, lowest competitor level
Residues (chain): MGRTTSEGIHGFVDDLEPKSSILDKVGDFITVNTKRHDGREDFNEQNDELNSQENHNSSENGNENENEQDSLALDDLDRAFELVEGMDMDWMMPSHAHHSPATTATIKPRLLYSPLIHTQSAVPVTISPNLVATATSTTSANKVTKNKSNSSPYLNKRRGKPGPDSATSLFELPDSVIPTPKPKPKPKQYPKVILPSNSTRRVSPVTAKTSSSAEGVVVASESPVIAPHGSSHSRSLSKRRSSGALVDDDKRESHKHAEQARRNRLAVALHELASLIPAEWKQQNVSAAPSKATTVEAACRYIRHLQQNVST
GTCTTGTCTCATTTTCACGTGAGTTTCCCCACTTCAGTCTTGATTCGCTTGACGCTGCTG: 9760 a.u.
AAATTACTAAGTTGTGGAGTGGGTGACGCCGTATGAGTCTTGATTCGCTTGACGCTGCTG: 3920 a.u.
CGTCCTAGCGATTGAGCGGTGGGTGCCATGAGGAAGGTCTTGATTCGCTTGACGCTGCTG: 6120 a.u.
ACAAAGAGAGATGAATCCGTGCGATCCATTGTAGAAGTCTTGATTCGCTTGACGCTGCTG: 5530 a.u.
CGGAGCTGCAAGTACTACGTGCCAGCAGCATAATAAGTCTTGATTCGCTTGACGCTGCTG: 7350 a.u.
CATACCCAACCTTTTCACGTGCTATAAGATATTTGTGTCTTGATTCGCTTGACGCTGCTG: 17600 a.u.
AAACCAGACAAGAGTCAGGTGACGCTGCAGATGAAAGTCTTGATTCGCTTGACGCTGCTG: 3800 a.u.
TCTGTATTCCCCAGAGTTGTGACGAATAACTGGTGAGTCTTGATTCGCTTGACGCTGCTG: 3720 a.u.
GAATGCAAACCCCATCACGTGAAATAGAGAACAATCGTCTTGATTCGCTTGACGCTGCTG: 11600 a.u.
GAGCAAGATACTTAGCACGTGAAGCGAGGAACAGTTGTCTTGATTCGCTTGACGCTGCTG: 15100 a.u.
ACCTACGAGTCCGGCCACGTGCGATCCGTAGCCATTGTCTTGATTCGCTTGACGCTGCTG: 15600 a.u.
CGTCCTAGTGATTCTCACGTGTTTTCCATGAGGAAGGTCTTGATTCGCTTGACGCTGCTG: 13000 a.u.
TTTCGATAATGTTAAGGAGTTTGAATTAACTACCAGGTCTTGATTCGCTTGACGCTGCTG: 2810 a.u.
TATCACTGAGCTGTTCTCGTGGCCGTTAGGTAAACCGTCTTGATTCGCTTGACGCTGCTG: 7510 a.u.
CTAACGAAGGTTTGCAGTGTGGGTGACAAGCCAAGTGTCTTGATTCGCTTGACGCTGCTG: 5740 a.u.
CAAAAGGCATGGCCTGGCGTGCAAAATCCGTTGTTTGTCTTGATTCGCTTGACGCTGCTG: 5790 a.u.
GTCTTGTCTCATTGCGATGTGGGTGTCCCCACTTCAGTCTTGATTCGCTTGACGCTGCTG: 4400 a.u.
GTTTCTTTATTAGTGCGGTGATATACCTCATATTATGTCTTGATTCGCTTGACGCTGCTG: 4360 a.u.
CTTCGTCTCTAACTAAACGTGCTAAAGTGTAAAACGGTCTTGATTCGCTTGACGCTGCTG: 13800 a.u.

Study 2 — technique: universal PBM; form: double-stranded DNA, one strand shown; medium: in vitro; concentration: not given; direction: higher = stronger binding; quantity: E-score
Target: Sal-like protein 4, full length isoform B (SALL4, Homo sapiens, UniProt Q9UJQ4-2, residues 1-616)
Setting: 8-mer, flanks averaged, mean of replicates
Construct (chain): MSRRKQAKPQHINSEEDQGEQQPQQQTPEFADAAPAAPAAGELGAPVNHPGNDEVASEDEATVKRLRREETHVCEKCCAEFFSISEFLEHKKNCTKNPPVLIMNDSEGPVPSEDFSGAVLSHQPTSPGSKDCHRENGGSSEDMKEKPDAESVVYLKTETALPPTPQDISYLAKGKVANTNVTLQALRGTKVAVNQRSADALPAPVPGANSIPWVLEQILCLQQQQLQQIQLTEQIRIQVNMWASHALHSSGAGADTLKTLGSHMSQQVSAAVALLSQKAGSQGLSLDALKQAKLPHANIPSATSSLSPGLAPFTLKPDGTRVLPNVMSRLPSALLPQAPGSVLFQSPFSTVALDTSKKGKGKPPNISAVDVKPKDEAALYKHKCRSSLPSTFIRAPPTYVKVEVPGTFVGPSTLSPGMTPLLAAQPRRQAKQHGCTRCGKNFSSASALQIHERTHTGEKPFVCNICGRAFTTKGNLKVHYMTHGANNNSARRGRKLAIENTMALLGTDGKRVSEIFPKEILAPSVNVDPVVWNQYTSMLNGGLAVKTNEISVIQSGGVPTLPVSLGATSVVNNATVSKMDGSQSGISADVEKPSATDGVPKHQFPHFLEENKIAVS
ACAATAAG: 0.277
AATTTCGT: 0.271
AGTGAGGG: -0.107
CACCCTAA: -0.00205
ACGTACAC: 0.123
CGCGTACA: 0.0315
AAATTCGC: 0.0808
CAAACTTG: 0.0533
CACGTAAG: 0.0889
CAAACATG: 0.182
AGGCTGCC: -0.336
GTAGTCGA: -0.0113
GTCTAGCA: 0.008
AGGATTTA: 0.214
CATAGAGC: -0.142
CTCTGAGA: -0.178
GCAGTAGA: -0.119
CTGCCGGA: -0.221
GATCTTGA: 0.105
CATTACAG: 0.191
GGATACTA: 0.1
CGTTAACA: 0.0434
ACCGTGTG: -0.181

Study 3 — technique: DHFR PCA, deep sequencing; medium: yeast; added: (+)-ABA 0.0091 µM; baseline: wild-type fitted maximum; direction: higher = stronger binding; quantity: relative binding score
Target: ABI1, truncated, D143A, DHFR fusion (Arabidopsis thaliana)
Setting: methotrexate growth selection, single substitutions
Starting sequence: PYL1, truncated, DHFR fusion (Arabidopsis thaliana); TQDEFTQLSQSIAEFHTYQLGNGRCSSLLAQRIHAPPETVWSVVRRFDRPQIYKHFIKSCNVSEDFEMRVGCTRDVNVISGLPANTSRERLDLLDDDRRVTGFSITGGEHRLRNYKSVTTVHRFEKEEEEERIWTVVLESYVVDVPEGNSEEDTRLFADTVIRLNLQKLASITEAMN
E38L: -0.838%
G81M: 0.516%
L28G: -0.707%
I12S: -4.52%
T101Q: -13.6%
I133C: 44.7%
R99A: -7.05%
L156Y: 1.83%
S150L: 10.2%
D97Q: 25%
E130S: 56.1%
V143S: -1.54%
T160M: 5.68%
E67L: 26.4%
D75N: 22.7%
R98I: -7.5%
A13K: 53.2%
V100M: -0.283%
Q51W: -1.41%
V62H: -8.46%
F5M: 49.5%
E151D: 9.12%

Study 4 — target: CCND3, cyclin fold, Cln2 fusion (human); technique: yeast growth competition, sequencing; medium: yeast; setting: weak parent motif; baseline: not given; direction: higher = stronger binding; quantity: normalised enrichment score
Starting sequence: MASTL docking peptide (human); PMIAKNLMCELDE
L11K: -0.0806
M2A: -0.026
N6C: 0.0459
I3A: -0.000948
K5F: -0.147
L11C: -0.0176
I3W: -0.193
I3T: 0.0557
M8H: -0.108
A4I: 0.161
K5E: 0.00454
E10M: -0.0113
M8I: 0.131
N6D: -0.0894
K5T: -0.166
K5N: 0.0778
M2G: 0.0477
C9F: -0.0436
M2T: 0.0464
N6H: -0.153
I3Y: 0.477
L7R: -0.0668
N6V: 0.117
N6Y: 0.119
K5S: -0.315

Some of these lines once more (study 2):
GTAGTCGA: -0.0113
GTCTAGCA: 0.008
AGGATTTA: 0.214
CATAGAGC: -0.142
CTCTGAGA: -0.178
GCAGTAGA: -0.119
CTGCCGGA: -0.221
GATCTTGA: 0.105
CATTACAG: 0.191
